Results pooled from the literature.
Every numbered part comes from another study and shows a few of its results, in no order.

Sample 1 — method: protein-binding microarray; form: double-stranded DNA, one strand shown; matrix: in vitro; tested at: 250 nM; setting: 60-bp whole probe; added: salmon DNA 0.4 mg/ml; relative to: random background probes; reading: higher = stronger binding; measurement: log fluorescence; all sequences stand within: GCCTAGCAC … GTCTTGATTCGCTTGACGCTGCTG
Target: Interferon regulatory factor 5, full length, phosphomimetic (IRF5, Homo sapiens, UniProt Q13568-2, residues 1-514, K96S/S451D/S453D/S456D/S462D)
TTCTAATTTACTTTGGTTGGGTGCTAG: 0.748 z-score
TTAGGACTGGACTTTCGGATAGTGCTA: 5.22 z-score
TCAAAAATGATGTTTTAGACTGTGCTA: 0.435 z-score
GACGGACTGGACCTTCGGGACGTGCTA: -0.521 z-score
TTAGAGCTCCTCCTTCTCTAAGTGCTA: -0.19 z-score

Sample 2 — method: protein-binding microarray; form: double-stranded DNA, one strand shown; matrix: in vitro; tested at: 0.8 µM; setting: whole 60-bp probe, no competitor; reading: higher = stronger binding; measurement: fluorescence intensity; all sequences stand within: … GTCTTGATTCGCTTGACGCTGCTG
Target: Centromere-binding protein 1, full length, N-terminal tag (CBF1, Saccharomyces cerevisiae, UniProt P17106, residues 1-351)
Chain of UniProt P17106 (whole entry, looked up): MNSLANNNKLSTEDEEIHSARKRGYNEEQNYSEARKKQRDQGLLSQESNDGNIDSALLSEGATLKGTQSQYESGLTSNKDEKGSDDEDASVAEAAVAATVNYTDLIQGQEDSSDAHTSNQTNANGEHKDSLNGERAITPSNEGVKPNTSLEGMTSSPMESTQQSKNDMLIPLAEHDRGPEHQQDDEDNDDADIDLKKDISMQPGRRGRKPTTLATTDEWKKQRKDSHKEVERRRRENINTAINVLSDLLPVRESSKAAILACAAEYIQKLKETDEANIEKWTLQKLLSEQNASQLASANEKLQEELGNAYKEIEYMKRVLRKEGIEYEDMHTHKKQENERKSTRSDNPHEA
GAAATTCACATGCATCAGTTGAAAGGTATATAATAG: 691 a.u.
GAAAGAACCACTGACTTCGTGGTGCGTTCGTTTTAG: 519 a.u.
CTATATCTAGTAACGCACGCTCTTTTGCAAAAATTC: 535 a.u.
CTACACTATTTACATATCGTGAAAATGACATTTTTC: 562 a.u.
GAAAGTGTCAACGTCCATCTGATATACTATTAGTAG: 592 a.u.

Sample 3 — method: protein binding microarray; form: double-stranded DNA, one strand shown; matrix: in vitro; tested at: not given; relative to: not given; reading: higher = stronger binding; measurement: E-score
Target: Histone acetyltransferase KAT6A, both winged helices, GST fusion (KAT6A, Homo sapiens, UniProt Q92794, residues 1-181)
Setting: 8-mer, flanks averaged, mean of 2 arrays, mostly near background
Target sequence (chain): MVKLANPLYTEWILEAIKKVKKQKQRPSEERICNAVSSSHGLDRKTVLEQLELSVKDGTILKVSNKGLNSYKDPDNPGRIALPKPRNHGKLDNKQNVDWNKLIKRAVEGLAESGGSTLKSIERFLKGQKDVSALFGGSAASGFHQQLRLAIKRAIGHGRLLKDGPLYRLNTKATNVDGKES
ACGTCATC: 0.00704
CGAGTTAA: -0.0569
AACATAGT: -0.0332
CACTGAGA: -0.0775
CGTCATAC: 0.0854

Mixed results
PhoQ, residues 284 288 289 292 302 303 SNSSNI — fold induction (PhoP, residues 12 14 15 18 19 LHSVW (Escherichia coli, UniProt P23836); Sort-seq, item: YFP reporter; E. coli; PhoQ-PhoP variant library, added: 10 µM Mg2+; relative to: high Mg2+ state, higher = stronger signaling): 3.68

A few entries again (sample 1):
TTAGAGCTCCTCCTTCTCTAAGTGCTA: -0.19 z-score
TTCTAATTTACTTTGGTTGGGTGCTAG: 0.748 z-score
